Measured values pooled from the literature.
Parts stem from different laboratories: compare values within a part only.

Sample 1
Target: Interferon regulatory factor 7, full length, phosphomimetic (IRF7, Homo sapiens, UniProt Q92985, residues 1-503, S471D/S472D/S475D/S476D/S477D/S483D/S484D/S487D)
Technique: protein-binding microarray
Form: double-stranded DNA, one strand shown
Medium: in vitro
Concentration: 2200 nM top
Notes: 60-bp whole probe
With: salmon DNA 0.4 mg/ml
Baseline: random background probes
Reading: higher = stronger binding
Shared flanks, not repeated: GCCTAGCAC … GTCTTGATTCGCTTGACGCTGCTG
Target sequence (chain): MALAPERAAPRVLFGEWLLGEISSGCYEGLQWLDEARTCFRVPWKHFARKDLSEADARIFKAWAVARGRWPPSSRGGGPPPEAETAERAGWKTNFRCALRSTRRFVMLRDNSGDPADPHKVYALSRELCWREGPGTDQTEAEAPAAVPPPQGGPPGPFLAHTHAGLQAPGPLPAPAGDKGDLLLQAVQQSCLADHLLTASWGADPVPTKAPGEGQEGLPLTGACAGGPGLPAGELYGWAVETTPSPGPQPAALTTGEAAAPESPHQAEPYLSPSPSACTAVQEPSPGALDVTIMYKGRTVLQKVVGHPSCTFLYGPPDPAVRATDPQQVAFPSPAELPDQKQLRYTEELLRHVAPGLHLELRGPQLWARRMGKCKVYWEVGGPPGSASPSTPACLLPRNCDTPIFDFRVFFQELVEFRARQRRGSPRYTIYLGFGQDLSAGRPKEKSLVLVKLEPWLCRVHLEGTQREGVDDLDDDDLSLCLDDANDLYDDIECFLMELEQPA
| Sequence | fitted relative affinity [z-score] |
| --- | --- |
| TTAGGTTGCGGGACTGGGTTAGTGCTA | -0.33 |
| CTAGATTTCAGTTCCGATTAGTGCTAG | 2.39 |
| GACGGTTTCCTACTGATGACGTGCTAG | 1.82 |
| ATAAAAGAACTCCTGGGGGAGTGCTAG | -0.538 |
| TTAGGTATCGACTTTCGGTTCGTGCTA | 11.4 |
| TTCGAATTCAGAATGGGAGAGTGCTAG | -0.0111 |
| TCAGGTTTCGACTATCGGTTAGTGCTA | 3.83 |
| TTAGTTTTCCTTTCCCTTTAGTGCTAG | 7.76 |
| TTAGGTCTGGGGACTGGGTTAGTGCTA | -0.78 |
| TGCTCCTTATGGCTAAAGGGGTGCTAG | -0.0985 |
| TAAGGTATCCTTATCCTTTAGTGCTAG | 0.569 |
| GTCGGTCTCGGTCTCGGGACGTGCTAG | 0.534 |
| TTAAGTTTCCTTATCCTTTAGTGCTAG | 2.73 |
| TTCATTATTGCTTCCTCTTTGTGCTAG | 2.67 |
| TTAGATATCGGGTAGCGATTAGTGCTA | -0.624 |
| TCATCCATGGGTATGGCACTGTGCTAG | 0.0436 |
| TTAGATTTCGGGTATCGATTAGTGCTA | 2.77 |
| TTAGATTCTAGTTTCGATTAGTGCTAG | 7.4 |
| TTAGAGTTCAGTTTCGATTAGTGCTAG | 5.92 |

Sample 2
Target: Ras GTPase-activating protein-binding protein 1, C-terminal RGG region (G3BP1, Homo sapiens, UniProt Q13283)
Chain of UniProt Q13283 (whole entry, looked up): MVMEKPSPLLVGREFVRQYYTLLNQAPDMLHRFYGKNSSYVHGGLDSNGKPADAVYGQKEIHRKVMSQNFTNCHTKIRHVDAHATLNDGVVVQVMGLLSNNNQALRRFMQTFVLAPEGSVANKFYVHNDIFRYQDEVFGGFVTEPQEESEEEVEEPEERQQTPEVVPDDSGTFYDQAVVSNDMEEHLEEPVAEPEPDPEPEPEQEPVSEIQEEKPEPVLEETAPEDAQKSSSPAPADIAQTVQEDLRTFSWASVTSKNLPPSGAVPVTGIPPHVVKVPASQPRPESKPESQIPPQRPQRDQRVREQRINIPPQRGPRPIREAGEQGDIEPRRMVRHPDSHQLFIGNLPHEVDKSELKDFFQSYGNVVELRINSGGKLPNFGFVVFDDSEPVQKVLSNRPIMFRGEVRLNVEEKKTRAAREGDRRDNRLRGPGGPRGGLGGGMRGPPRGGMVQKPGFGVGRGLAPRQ
Technique: RNA Bind-n-Seq
Form: RNA
Medium: in vitro
Concentration: 1 µM
Notes: whole 134-nt RNA, ends assumed
With: 150 mM KCl
Baseline: input library
Reading: higher = stronger binding
| Sequence | log2 enrichment |
| --- | --- |
| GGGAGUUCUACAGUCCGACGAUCCCUGUGCUACACAUCGUAUGUACCGAAUCAAACCCCCAAAUUUUUUUAAAUUUUUUUAAAAAAGUAUUAUGUUACGCCGUUCGGAUCUGCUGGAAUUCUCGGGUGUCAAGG | -1.1 |
| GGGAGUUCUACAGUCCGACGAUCUCAGAGGAAUAUCCUUGACUUCCCCCAGCAUGUUUCCCCCUCCAAGGACAUCCGGACAGCCAGCACAGAGGCCGACAAGAAGCUCUCUGAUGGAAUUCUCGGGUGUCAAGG | -0.535 |
| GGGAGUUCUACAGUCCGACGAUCCAAGUCCUGUGCUACACAUCGUAUGUACCGAAUCGGAAAAGGGAAAAGGAAAAGGAAAGUAUUAUGUUACGCCGUUCGGAUCUGCACUUCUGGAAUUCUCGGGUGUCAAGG | -1.63 |
| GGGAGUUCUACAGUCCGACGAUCAAAGCAAGAGAUGGCUAGUGCUUCAUCCAGCCAAAGAGGUAUGCUUGUUGCUUAAUUAAACCUUAAAGGUAACUUUGAGUUACUCCAGUAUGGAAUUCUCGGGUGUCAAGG | -1.61 |
| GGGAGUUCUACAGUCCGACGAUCCACAGACAACUCGCACCCACACAGACACAGAGGGAAGGGGUUGGGAUGGGGACAGGGUGCACAGCAGGGCGGGGUAGGACCCCAGCCCCUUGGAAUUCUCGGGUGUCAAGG | 0.379 |
| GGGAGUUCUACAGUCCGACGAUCAAGUCCUGUGCUACACAUCGUAUGUACCGAAUCGGGGCCCGGGCCCGGGCCCGGGGAAAGUAUUAUGUUACGCCGUUCGGAUCUGCACUUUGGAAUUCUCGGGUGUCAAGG | -2.39 |
| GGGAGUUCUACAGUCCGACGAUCAGUCCUGUGCUACACAUCGUAUGUACCGAAUCGGAAAAAAAGGUUUUUGGUUUUUGGAAAGUAUUAUGUUACGCCGUUCGGAUCUGCACUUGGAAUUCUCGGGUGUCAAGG | -2.21 |
| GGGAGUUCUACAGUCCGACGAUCAAGUCCUGUGCUACACAUCGUAUGUACCGAAUCGGAAAAAAAGGAAAAAGGUUUGGAAAGUAUUAUGUUACGCCGUUCGGAUCUGCACUUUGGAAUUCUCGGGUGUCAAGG | -2.33 |
| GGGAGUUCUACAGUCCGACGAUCUGGGAGGUGGAUUUUGUUUAUUUUUUUAGCUCAUUUCCAGGGGUGGGAAUUUUUUUUUAAUUUGUGUCAUGAAUAAAGUUGUUUUUGAAAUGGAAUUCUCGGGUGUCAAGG | 3.33 |

Sample 3
Target: RNA binding protein fox-1 homolog 2, RRM domain, GST-SBP tag (RBFOX2, Homo sapiens, UniProt O43251-10, residues 100-194)
Technique: RNA Bind-n-Seq
Form: RNA
Medium: in vitro
Concentration: 365 nM
Notes: natural RNA segment, single round, ends assumed
Baseline: no-protein control
Reading: higher = stronger binding
Target sequence (chain): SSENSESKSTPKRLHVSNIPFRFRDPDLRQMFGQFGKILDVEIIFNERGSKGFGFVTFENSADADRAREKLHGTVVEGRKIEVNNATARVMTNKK
| Sequence | RBNS enrichment (R) |
| --- | --- |
| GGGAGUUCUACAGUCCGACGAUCCUUAACAUUAUCAGUCAACUUCCACAUUAAUGAAAGUUGACCAUAGUUAUUUCCAAAUAAAAAGAAACCAACUCUUACCAGGUCUUGGACUGUGAUGUCAUAUUAUUCAGUGGAAUUCUCGGGUGCCAA | 0.328 |
| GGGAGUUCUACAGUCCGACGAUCCCUGUGACUGUGCAGCCUGACCCCGCAUAUGUUCCUGUGUGUUUGUGUGGUCUCCCCUUGUUUGGGGCUCAUACUGGGUAAGAGGCCCAGGAUAGCCAGCUUGCUUCUCUUGGAAUUCUCGGGUGCCAA | 2.51 |
| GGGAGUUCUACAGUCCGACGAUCGCAGGCCUAGUGUAUACAAACUGGUUGUAUGUAUCAUGCCGUGGAGCUAGGGGGAGGAGUCAUUGUGGCACAAGUAUUUGUACAUACUCUGCUUCUCUCUGUCAGCGUCCUGGAAUUCUCGGGUGCCAA | 0.233 |
| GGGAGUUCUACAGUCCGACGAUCAGCAAGAGAGUGCACCCGUUUAGCCCUGGACCCUGUUUCUUACUGUGUGACUUGGCUAGAGUUGGGAGUUCCCCCAAAAUAAACGUGUCCCCAUUUUACCAGAACCAAACUGGAAUUCUCGGGUGCCAA | 0.366 |
| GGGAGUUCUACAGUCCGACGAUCAGUUUGGUGCUGUUUUAGAGUAUGCCUGCUCCCCAGCCCCCUGCCUGGAACCCUCUGAGCAACUUGCUCUGACCUAUAAUGUCUUAGGUGCAACACGGACCCCACCAGAGUGGAAUUCUCGGGUGCCAA | 0.668 |
| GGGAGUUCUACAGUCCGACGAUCGGCUAGAAGCAGCCAGGCCAUGGAAACAAGUUGAAUACAGCGAUUGGUAGGCCUCAUGUCAGAAUCAGGACCCUGCACUUCAGGACCCUUGCUUCUGCCCACCAAUCAGAUGGAAUUCUCGGGUGCCAA | 0.337 |
| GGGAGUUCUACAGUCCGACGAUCAAUAGCUGAGGGAAAAGGGAGGGAAAAGGAAGUUAUGGGAAUACCUGUGGUGGUUGUGAUCCCUAGGUCUUGGGAGCUCUUGGAGGUGUCUGUAUCAGUGGAUUUCCCAUUGGAAUUCUCGGGUGCCAA | 0.821 |
| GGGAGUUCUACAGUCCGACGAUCCCUGUUGGUCCCCUGUUCAGAAUGGAGUGCAGCCCGCCAGCGGAAAGUGUUCAUUCUGCAUAGGUGUGAGGCUUUAUCUGCACACAGGACAUGAAAACCAGCAGAAAGGCUGGAAUUCUCGGGUGCCAA | 0.232 |

Sample 4
Target: Histone acetyltransferase KAT6A, winged helix 1, GST fusion (KAT6A, Homo sapiens, UniProt Q92794, residues 1-85)
Technique: protein binding microarray
Form: double-stranded DNA, one strand shown
Medium: in vitro
Concentration: not given
Notes: 8-mer, flanks averaged, mean of 2 arrays, mostly near background
Baseline: not given
Reading: higher = stronger binding
Residues (chain): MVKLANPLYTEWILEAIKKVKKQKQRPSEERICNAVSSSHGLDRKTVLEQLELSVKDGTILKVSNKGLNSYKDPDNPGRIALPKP
| Sequence | E-score |
| --- | --- |
| AATACACA | -0.0896 |
| CCTTTTAC | -0.0874 |
| CCAGCTAA | -0.141 |
| CGACTGAC | 0.00106 |
| GGCGTGCA | 0.0958 |
| GGACGTCC | 0.0207 |
| GATCAGGC | -0.188 |
| GTGCATTA | -0.0322 |
| GGCACCAA | -0.0191 |
| ATTACGTA | -0.00494 |
| AACTGAGT | -0.129 |
| GCTGATCA | -0.00263 |
| ATCAACAT | -0.18 |
| CTTACATC | -0.217 |
| AGCGTTGG | -0.104 |
| CAGGCGTC | 0.0715 |
| CCACGGCA | 0.333 |
| GTGTACCA | -0.024 |
| CAGTCGGC | 0.245 |
| AACATATC | 0.104 |
| ATTGTAAG | 0.00432 |
| CGGATACA | 0.201 |
| ACTCTACG | -0.148 |
| GCAGGCGA | -0.0451 |
| CTCCCGGA | 0.0581 |

A few entries again (sample 4):
| Sequence | E-score |
| --- | --- |
| GGACGTCC | 0.0207 |
| GTGTACCA | -0.024 |
| AACTGAGT | -0.129 |
| GCTGATCA | -0.00263 |
| CGGATACA | 0.201 |
| GTGCATTA | -0.0322 |
| GGCGTGCA | 0.0958 |
| ATTACGTA | -0.00494 |
| CAGTCGGC | 0.245 |
